Experimental data pooled from the literature.
± marks the error that the study gave.
HCRTR1: Orexin/Hypocretin receptor type 1 (HCRTR1, Homo sapiens, UniProt O43613)
Sequence of UniProt O43613 (whole entry, looked up): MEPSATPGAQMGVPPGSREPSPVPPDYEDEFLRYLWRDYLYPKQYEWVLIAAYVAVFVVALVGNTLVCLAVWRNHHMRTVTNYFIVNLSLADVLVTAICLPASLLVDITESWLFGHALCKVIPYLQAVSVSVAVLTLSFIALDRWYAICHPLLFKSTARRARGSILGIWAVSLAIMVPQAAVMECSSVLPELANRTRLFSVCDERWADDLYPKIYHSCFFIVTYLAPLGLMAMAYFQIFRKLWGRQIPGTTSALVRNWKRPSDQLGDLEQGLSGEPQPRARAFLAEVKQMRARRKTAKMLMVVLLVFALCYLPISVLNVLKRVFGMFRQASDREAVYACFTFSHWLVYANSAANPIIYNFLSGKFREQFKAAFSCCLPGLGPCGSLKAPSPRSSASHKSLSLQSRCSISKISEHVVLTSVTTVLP
Sequence of UniProt Q7TMS5 (whole entry, looked up): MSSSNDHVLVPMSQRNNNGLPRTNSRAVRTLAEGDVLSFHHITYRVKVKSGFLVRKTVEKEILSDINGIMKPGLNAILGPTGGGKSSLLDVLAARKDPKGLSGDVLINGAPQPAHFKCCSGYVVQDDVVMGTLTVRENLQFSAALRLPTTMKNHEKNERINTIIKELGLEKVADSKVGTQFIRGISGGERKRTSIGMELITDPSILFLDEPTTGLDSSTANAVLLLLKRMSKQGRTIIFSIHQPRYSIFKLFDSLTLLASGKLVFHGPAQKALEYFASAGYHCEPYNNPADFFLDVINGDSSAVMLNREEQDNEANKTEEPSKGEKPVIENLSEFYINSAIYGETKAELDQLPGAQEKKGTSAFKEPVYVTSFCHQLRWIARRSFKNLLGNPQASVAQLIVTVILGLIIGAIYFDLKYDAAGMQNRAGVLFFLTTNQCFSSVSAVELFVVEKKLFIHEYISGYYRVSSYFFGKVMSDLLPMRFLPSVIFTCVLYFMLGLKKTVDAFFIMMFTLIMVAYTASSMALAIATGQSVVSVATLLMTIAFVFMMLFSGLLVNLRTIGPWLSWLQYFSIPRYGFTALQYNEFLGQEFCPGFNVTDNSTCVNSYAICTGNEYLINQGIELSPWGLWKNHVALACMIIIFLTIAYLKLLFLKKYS
Sequence of UniProt P10632 (whole entry, looked up): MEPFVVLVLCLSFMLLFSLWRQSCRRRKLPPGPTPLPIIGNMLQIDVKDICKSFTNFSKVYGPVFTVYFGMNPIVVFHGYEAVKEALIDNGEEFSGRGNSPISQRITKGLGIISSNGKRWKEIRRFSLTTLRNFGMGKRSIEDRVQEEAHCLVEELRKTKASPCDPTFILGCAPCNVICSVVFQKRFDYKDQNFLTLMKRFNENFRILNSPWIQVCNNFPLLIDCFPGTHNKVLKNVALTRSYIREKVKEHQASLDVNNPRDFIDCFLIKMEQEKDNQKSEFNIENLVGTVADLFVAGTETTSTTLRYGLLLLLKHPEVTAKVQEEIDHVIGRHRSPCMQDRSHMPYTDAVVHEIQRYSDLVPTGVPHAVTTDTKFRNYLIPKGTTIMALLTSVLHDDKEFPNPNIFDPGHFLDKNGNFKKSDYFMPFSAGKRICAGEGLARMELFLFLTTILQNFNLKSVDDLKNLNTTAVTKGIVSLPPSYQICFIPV
Sequence of UniProt P11509 (whole entry, looked up): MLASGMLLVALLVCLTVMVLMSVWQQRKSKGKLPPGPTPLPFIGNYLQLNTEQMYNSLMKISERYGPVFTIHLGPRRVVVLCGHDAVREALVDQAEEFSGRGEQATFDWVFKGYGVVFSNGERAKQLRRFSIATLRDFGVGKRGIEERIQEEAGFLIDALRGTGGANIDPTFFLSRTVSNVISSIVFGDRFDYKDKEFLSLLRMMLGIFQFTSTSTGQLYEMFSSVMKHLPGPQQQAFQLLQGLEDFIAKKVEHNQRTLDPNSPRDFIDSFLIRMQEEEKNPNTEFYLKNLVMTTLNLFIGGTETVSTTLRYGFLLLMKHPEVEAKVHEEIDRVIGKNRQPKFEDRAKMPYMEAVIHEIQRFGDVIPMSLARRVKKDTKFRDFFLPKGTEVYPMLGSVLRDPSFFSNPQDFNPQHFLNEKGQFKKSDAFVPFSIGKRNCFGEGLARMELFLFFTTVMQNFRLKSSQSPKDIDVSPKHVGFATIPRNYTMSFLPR

SMILES | target or system | test | system | conditions | how to read | endpoint | result
COc1ccc(/C=C2/C(=O)c3ccccc3C2N2CCOCC2)cc1 (stereo not shown) | Danio rerio embryo |  |  | concentration not given, 24 h |  | developmental toxicity | toxic
Cc1coc2c1CC[C@@H](C)C2 | Cytochrome P450 2A6 (CYP2A6, Homo sapiens, UniProt P11509) | inactivator |  | 5 µM, 0 min, pH 7.4, 30 °C, with: NADPH | baseline: without NADPH | remaining activity | 107 ± 9%
Cc1ccc(Nc2nccc(N(C)c3ccc4c(C)n(C)nc4c3)n2)cc1S(N)(=O)=O | Broad substrate specificity ATP-binding cassette transporter ABCG2 (Mus musculus, UniProt Q7TMS5) | bidirectional transport | MDCK-Bcrp1 (murine Bcrp1) | 5 µM, 240 min, with: canertinib |  | Papp A-B | 2.33 ± 0.1 ×10⁻⁶ cm/s
CCCC[C@H](NC(C)=O)C(=O)N[C@H]1CCC(=O)NC[C@@H](C(=O)N[C@@H](Cc2c[nH]c3ccccc23)C(N)=O)NC(=O)[C@H](CCCNC(=N)N)NC(=O)[C@@H](Cc2ccccc2)NC(=O)[C@H](Cc2c[nH]cn2)NC1=O |  |  | CD Sprague Dawley rat, male, plasma | subcutaneous, 5.0 mg/kg daily, day 1 |  | Vd/F | 9.78 L/kg
COc1cc2c(cc1OC)C(Cc1ccc3ccccc3c1)N(CC(=O)NCc1ccccc1)CC2 (stereo not shown) | HCRTR1 | calcium signal, antagonist, fluorescence |  |  |  | Kb | 245 nM
CC1=N[C@]2(C(=O)CO)[C@@H](C[C@H]3[C@@H]4C[C@@H](O)C5=CC(=O)C=C[C@]5(C)[C@H]4[C@@H](O)C[C@@]32C)O1 | Cytochrome P450 2C8 (CYP2C8, Homo sapiens, UniProt P10632) | enzyme activity, inhibitor | human, liver microsomes | with preincubation |  | IC50 | > 50000 nM
CC[C@H](C)[C@H](NC(=O)[C@H](CCC(=O)O)NC(=O)[C@H](CO)NC(=O)[C@@H](NC(=O)[C@@H](N)CO)C(C)C)C(=O)N[C@@H](CCC(N)=O)C(=O)N[C@@H](CC(C)C)C(=O)N[C@@H](CCSC)C(=O)N[C@@H](Cc1cnc[nH]1)C(=O)N[C@@H](CC(N)=O)C(=O)N[C@@H](CC(C)C)C(=O)NCC(=O)N[C@@H](CCCCN)C(=O)N[C@@H](Cc1cnc[nH]1)C(=O)N[C@@H](CC(C)C)C(=O)N[C@@H](CC(N)=O)C(=O)N[C@@H](CO)C(=O)N[C@@H](CCSC)C(=O)N[C@@H](CCC(=O)O)C(=O)N[C@@H](CCCN=C(N)N)C(=O)N[C@H](C(=O)N[C@@H](CCC(=O)O)C(=O)N[C@@H](Cc1c[nH]c2ccccc12)C(=O)N[C@@H](CC(C)C)C(=O)N[C@@H](CCCN=C(N)N)C(=O)N[C@@H](CCCCN)C(=O)N[C@@H](CCCCN)C(=O)N[C@@H](CC(C)C)C(=O)N[C@@H](CCC(N)=O)C(=O)N[C@@H](CC(=O)O)C(=O)N[C@H](C(=O)N[C@@H](Cc1cnc[nH]1)C(=O)N[C@@H](CC(N)=O)C(=O)N[C@@H](Cc1ccccc1)C(=O)O)C(C)C)C(C)C | Chymotrypsinogen A, activated (chymotrypsin) (Bos taurus, UniProt P00766) | substrate, HPLC-UV |  | 30 min, pH 6.5, 37 °C, without trypsin inhibitor |  | remaining intact compound | 0%
Cc1nc2cccc(OCC(C)(C)C(=O)NC(C)C)c2c(N)c1C(=O)O |  |  | male Sprague-Dawley rat, plasma | oral food admix, 30 mg/kg/day, day 7, 90-day dietary study |  | AUC(0-24 h) | 250 ng·h/mL
COc1cc2c(cc1OC)C(Cc1cccc(N(C)C)c1)N(CC(=O)NCc1ccccc1)CC2 (stereo not shown) | HCRTR1 | calcium signal, antagonist, fluorescence |  |  |  | Kb | 75.3 nM
CCCOc1ccc([C@H]2CNC(=O)N2c2ccc3[nH]cnc3c2)cc1 |  |  | human volunteers fasted, plasma | oral solution, 400 mg single dose, day 1, geometric mean |  | AUC(0-12h) | 3420 ng·h/mL

Excerpt of the above:
SMILES | target or system | test | system | conditions | how to read | endpoint | result
COc1cc2c(cc1OC)C(Cc1cccc(N(C)C)c1)N(CC(=O)NCc1ccccc1)CC2 (stereo not shown) | HCRTR1 | calcium signal, antagonist, fluorescence |  |  |  | Kb | 75.3 nM
